Measured values collected from several papers.
A part holds a random share of what one study measured. Several values in a cell are separate wells, animals, samples, runs or records.
Sequence of UniProt Q96SW2 (whole entry, looked up): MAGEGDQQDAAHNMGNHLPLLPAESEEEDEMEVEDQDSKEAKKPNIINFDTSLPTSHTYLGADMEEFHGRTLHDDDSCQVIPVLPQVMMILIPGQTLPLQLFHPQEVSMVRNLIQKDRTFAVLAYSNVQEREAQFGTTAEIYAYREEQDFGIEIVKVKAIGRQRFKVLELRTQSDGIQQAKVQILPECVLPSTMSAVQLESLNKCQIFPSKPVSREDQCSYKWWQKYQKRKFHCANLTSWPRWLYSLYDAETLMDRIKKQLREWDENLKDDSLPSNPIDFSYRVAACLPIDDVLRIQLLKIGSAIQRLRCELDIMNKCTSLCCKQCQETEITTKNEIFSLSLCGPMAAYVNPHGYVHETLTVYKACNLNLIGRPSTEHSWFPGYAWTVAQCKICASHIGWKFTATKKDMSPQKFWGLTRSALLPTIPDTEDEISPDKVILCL
Sequence of UniProt Q9NRP7 (whole entry, looked up): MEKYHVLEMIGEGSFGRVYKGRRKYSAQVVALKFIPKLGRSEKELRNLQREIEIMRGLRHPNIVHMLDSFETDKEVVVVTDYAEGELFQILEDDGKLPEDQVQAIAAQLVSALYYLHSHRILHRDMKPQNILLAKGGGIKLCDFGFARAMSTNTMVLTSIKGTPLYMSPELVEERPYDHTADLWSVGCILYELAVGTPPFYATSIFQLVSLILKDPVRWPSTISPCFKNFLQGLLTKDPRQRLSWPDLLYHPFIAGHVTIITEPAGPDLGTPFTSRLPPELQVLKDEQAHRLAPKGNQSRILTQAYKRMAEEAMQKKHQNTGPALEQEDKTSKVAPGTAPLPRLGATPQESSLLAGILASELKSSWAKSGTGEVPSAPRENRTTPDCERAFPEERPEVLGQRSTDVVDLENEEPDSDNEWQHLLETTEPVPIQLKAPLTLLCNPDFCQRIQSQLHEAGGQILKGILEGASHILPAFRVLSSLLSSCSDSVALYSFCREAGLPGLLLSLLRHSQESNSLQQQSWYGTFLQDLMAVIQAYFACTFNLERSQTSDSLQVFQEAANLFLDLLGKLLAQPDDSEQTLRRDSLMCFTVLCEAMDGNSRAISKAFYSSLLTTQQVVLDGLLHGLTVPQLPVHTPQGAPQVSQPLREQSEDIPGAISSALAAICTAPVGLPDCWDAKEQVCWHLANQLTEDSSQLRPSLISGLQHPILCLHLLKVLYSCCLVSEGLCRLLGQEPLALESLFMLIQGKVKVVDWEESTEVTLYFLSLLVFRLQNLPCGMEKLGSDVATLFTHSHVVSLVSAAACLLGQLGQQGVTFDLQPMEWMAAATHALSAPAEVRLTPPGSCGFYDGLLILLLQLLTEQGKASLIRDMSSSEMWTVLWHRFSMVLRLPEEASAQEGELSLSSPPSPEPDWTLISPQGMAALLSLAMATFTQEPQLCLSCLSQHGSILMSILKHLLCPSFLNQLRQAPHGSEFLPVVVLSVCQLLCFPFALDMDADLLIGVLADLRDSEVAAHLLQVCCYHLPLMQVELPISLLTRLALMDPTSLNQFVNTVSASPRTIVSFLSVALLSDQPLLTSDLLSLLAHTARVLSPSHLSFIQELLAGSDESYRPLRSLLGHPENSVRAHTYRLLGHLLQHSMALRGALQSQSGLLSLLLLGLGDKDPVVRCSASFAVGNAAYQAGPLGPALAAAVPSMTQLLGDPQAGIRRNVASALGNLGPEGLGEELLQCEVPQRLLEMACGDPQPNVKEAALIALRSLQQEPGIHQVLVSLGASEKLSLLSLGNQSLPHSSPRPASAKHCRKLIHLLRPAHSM
Sequence of UniProt O76039 (whole entry, looked up): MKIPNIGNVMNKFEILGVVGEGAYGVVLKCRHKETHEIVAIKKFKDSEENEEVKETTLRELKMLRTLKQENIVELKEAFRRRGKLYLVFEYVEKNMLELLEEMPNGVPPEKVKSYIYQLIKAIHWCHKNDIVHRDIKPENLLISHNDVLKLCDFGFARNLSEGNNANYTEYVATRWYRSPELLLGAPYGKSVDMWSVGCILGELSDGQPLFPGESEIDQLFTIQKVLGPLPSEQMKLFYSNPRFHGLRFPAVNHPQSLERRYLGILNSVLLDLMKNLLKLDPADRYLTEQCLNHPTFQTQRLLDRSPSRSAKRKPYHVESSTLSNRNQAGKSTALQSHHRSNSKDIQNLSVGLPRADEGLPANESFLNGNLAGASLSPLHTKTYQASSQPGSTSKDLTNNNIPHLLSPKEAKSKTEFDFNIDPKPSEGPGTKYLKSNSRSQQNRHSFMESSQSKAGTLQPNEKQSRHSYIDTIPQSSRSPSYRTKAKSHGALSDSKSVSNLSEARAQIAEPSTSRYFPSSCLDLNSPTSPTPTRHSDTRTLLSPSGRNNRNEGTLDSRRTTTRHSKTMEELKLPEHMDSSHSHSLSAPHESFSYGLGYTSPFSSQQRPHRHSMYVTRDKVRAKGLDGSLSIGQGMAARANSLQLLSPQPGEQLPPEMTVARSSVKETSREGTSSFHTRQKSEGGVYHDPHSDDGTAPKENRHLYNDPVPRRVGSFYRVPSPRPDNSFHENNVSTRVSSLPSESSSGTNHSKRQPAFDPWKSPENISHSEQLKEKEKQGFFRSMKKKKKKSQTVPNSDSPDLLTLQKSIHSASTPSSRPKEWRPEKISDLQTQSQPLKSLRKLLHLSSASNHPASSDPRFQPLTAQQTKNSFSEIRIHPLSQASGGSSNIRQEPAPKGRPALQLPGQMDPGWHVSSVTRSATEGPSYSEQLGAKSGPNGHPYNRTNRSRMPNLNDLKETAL
Sequence of UniProt P51817 (whole entry, looked up): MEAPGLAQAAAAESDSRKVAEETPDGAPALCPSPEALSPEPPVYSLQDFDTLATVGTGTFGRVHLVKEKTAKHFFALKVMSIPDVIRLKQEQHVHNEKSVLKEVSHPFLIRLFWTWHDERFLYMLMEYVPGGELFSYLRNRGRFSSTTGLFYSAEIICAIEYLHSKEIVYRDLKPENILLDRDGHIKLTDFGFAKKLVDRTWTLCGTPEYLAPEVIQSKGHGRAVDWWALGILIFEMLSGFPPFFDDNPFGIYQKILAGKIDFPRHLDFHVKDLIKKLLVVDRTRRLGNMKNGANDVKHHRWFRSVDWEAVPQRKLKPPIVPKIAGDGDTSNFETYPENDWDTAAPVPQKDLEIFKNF

Study 1 — measurement: inhibition
SMILES: Cc1ccc(O)c(C)c1-c1cnc2[nH]c(-c3cnc(N4CCC5(CC4)CC(N4CCN(c6ccc(N[C@H]7CCC(=O)NC7=O)cc6F)CC4)CO5)nc3)cc2c1C#N (single isomer, unassigned)
PKMYT1: Membrane-associated tyrosine- and threonine-specific cdc2-inhibitory kinase (PKMYT1, Homo sapiens, UniProt Q99640)
Sequence of UniProt Q99640 (whole entry, looked up): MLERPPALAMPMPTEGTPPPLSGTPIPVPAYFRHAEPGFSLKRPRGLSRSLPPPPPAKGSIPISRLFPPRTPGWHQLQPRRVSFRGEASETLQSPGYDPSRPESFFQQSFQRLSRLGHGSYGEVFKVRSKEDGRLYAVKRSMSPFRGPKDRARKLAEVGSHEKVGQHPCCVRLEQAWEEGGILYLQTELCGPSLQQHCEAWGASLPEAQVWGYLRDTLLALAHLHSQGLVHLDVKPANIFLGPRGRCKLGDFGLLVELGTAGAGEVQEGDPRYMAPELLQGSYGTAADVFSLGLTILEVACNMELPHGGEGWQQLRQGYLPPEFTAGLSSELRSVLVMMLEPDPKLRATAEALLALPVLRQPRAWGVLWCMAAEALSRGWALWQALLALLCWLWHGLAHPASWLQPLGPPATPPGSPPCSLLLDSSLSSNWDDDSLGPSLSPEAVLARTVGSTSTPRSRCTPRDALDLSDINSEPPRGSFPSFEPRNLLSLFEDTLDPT
PKMYT1; enzyme activity, inhibitor; 1.524 nM: 26.3%
PKMYT1; binding, HTRF; 4.57 nM: 54.4% and 49.5%
KLE; cell proliferation; 4.572 nM: -0.93% and -3.34% and -3.86%
Protein cereblon (CRBN, Homo sapiens, UniProt Q96SW2); binding; 370.37 nM: 15.8% and 8.13%
HCC1569; automated capillary immunoblot, item: CDK1 phospho-Thr14; 1 nM, 4 h: 6.62%
PKMYT1; 0.00046 µM: 1.15% and -1.75%
HCC1569; automated capillary immunoblot, item: CDK1 phospho-Thr14; 100 nM, 24 h: 82.2%
PKMYT1; 0.01235 µM: 63%
MKN-1; cell proliferation; 1.524 nM: -6.6% and -3.38% and -4.95%
HCC1569; automated immunoblotting, item: CDK1 phospho-Thr14; concentration not given, 4 h after washout: 56%
PKMYT1; 0.03704 µM: 88.7%
PKMYT1; 1.524 nM: 23.9% and 26.8%

Study 2 — tested at: 1 µM; measurement: remaining binding
SMILES: CCC1(c2cccc(-c3cn(C)nc3C)c2)C2=C(Nc3n[nH]cc31)C(F)C(C)(C)CC2=O (single isomer, unassigned)
CDKL2 (Homo sapiens, UniProt Q92772); kinase binding, KINOMEscan; baseline: DMSO control: 100%
MAP4K2 (Homo sapiens, UniProt Q12851); binding, competition with immobilised ligand: 92%
NEK1 (Homo sapiens, UniProt Q96PY6); binding, competition with immobilised ligand: 100%
HUNK (Homo sapiens, UniProt P57058); binding, competition with immobilised ligand: 76%
STK36 (Homo sapiens, UniProt Q9NRP7); binding, competition with immobilised ligand: 100%
NEK6 (Homo sapiens, UniProt Q9HC98); kinase binding, KINOMEscan; baseline: DMSO control: 80%
PRKX (Homo sapiens, UniProt P51817); kinase binding, KINOMEscan; baseline: DMSO control: 90%
AAK1 (Homo sapiens, UniProt Q2M2I8); kinase binding, KINOMEscan; baseline: DMSO control: 97%
CRK2 (Plasmodium falciparum, UniProt P61075); binding, competition with immobilised ligand: 100%
CDKL5 (Homo sapiens, UniProt O76039); binding, competition with immobilised ligand: 100%
PRKG2 (Homo sapiens, UniProt Q13237); kinase binding, KINOMEscan; baseline: DMSO control: 100%
LIM domain kinase 2 (LIMK2, Homo sapiens, UniProt P53671); kinase binding, KINOMEscan; baseline: DMSO control: 95%
MAP3K4 (Homo sapiens, UniProt Q9Y6R4); kinase binding, KINOMEscan; baseline: DMSO control: 100%
TAOK3 (Homo sapiens, UniProt Q9H2K8); kinase binding, KINOMEscan; baseline: DMSO control: 96%
LCK (Homo sapiens, UniProt P06239); kinase binding, KINOMEscan; baseline: DMSO control: 100%
ULK3 (Homo sapiens, UniProt Q6PHR2); binding, competition with immobilised ligand: 91%
DMPK (Homo sapiens, UniProt Q09013); binding, competition with immobilised ligand: 85%
MAP3K5 (Homo sapiens, UniProt Q99683); binding, competition with immobilised ligand: 95%
STK24 (Homo sapiens, UniProt Q9Y6E0); kinase binding, KINOMEscan; baseline: DMSO control: 100%

Study 3 — measurement: body weight
SMILES: Cc1ncsc1-c1ccc(C(CO)NC(=O)C2CC(O)CN2C(=O)C(C(C)C)n2cc(-c3ccc(COc4c(-c5c(C)c(F)cc6[nH]ncc56)c(C5CC5)cc5c(N6CC7CC6CN7)nc(OC6CCOCC6)nc45)cc3)nn2)cc1 (centres unmarked)
mouse, PK-59 xenograft; subcutaneous, 30 mg/kg once daily, day 4: 18.6 g and 21.9 g and 20.1 g and 19.3 g and 17.9 g
mouse, PK-59 xenograft; 0.3 mg/kg, day 14: 24.8 g and 25.4 g and 25.2 g
mouse, HT-29 xenograft; sc, 30 mg/kg once daily, day 15: 19.2 g and 17.1 g and 21.1 g and 18.4 g and 20 g
mouse, lung LXFA sample A PDX; 30 mg/kg twice weekly, day 2: 28.6 g
mouse, HPAC xenograft; 30 mg/kg once weekly, day 7: 23.5 g
mouse, GP5d xenograft; 30 mg/kg once weekly, day 0: 27.8 g and 22.4 g and 24 g
mouse, lung LXFA sample A PDX; 10 mg/kg twice weekly, day 22: 29.8 g and 27.7 g and 26.5 g and 29.9 g
mouse, PK-1 xenograft; 30 mg/kg twice weekly, day 7: 24.8 g
mouse, PK-59 xenograft; 1 mg/kg, day 17: 26.3 g and 24.8 g and 31.5 g
mouse, PK-59 xenograft; subcutaneous, 30 mg/kg once daily, day 11: 18.8 g and 22.2 g and 20.6 g and 19.6 g and 18.7 g
mouse, PK-59 xenograft; subcutaneous, 30 mg/kg once daily, day 22: 19.8 g and 20 g and 18.6 g and 19.5 g and 17.9 g

Study 4 — observed: thermal unfolding; technique: differential scanning fluorimetry; tested at: 5.5 µM; direction: higher = more unfolded; measurement: SYPRO Orange fluorescence
Compound: C[C@@H]1CN(c2ccc(-c3cc(C(=O)NCCOCCOCCOCCOCCOCCOCCNC(=O)/C=C/c4[nH]cc(C(=O)N[C@@H](CC(N)=O)c5ccc(F)c(Cl)c5)c4-c4ccc(Cl)cc4F)ccc3F)cc2NC(=O)c2ccc(F)cc2C(F)(F)F)C[C@H](C)N1C
DCAF1: DDB1- and CUL4-associated factor 1 (DCAF1, Homo sapiens, UniProt Q9Y4B6)
Sequence of UniProt Q9Y4B6 (whole entry, looked up): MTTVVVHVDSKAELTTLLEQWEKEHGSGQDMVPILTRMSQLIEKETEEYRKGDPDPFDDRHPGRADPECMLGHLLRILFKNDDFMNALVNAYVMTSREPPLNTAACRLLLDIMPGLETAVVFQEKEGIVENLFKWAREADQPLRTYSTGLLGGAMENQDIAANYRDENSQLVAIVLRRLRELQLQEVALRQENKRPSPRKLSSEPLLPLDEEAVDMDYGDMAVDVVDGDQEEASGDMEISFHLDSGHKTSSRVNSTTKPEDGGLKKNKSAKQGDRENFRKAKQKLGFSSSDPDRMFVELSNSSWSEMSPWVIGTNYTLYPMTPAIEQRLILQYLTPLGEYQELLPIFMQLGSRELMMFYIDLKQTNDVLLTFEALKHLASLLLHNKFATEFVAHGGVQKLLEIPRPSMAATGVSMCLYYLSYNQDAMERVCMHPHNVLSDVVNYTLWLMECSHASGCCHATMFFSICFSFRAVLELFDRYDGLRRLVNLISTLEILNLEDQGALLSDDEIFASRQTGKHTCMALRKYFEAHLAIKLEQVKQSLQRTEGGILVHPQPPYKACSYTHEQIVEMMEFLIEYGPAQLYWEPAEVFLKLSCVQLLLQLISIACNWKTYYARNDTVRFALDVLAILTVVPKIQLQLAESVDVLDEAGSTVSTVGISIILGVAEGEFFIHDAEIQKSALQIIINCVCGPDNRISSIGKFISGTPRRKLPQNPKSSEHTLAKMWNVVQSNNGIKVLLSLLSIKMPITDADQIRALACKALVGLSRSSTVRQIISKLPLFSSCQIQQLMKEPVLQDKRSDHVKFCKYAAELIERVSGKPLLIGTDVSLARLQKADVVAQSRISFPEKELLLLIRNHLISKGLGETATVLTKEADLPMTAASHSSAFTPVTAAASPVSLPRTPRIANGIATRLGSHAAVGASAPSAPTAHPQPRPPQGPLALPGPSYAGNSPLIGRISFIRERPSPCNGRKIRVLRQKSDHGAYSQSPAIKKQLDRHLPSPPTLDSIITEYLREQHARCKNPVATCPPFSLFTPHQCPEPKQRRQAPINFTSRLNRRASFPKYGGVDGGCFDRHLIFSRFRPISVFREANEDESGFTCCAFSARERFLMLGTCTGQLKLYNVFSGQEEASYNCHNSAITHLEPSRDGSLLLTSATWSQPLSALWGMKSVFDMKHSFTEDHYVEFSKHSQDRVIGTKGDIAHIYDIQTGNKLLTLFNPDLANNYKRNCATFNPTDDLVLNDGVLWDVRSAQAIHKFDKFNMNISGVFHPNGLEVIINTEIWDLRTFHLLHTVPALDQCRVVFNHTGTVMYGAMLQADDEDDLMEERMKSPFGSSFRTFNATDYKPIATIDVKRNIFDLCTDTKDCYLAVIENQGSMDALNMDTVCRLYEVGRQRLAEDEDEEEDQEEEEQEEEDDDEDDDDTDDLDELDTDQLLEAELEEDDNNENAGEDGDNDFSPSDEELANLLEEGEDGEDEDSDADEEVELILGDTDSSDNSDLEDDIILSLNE
WDR5: WD repeat-containing protein 5 (WDR5, Homo sapiens, UniProt P61964)
DCAF1; 83.61 °C: 37100 a.u.
DCAF1; 37.8 °C: 11000 a.u.
DCAF1; 51.4 °C: 19500 a.u.
DCAF1; 25.8 °C: 7450 a.u.
DCAF1; 83.41 °C: 37300 a.u.
DCAF1; 90.41 °C: 32100 a.u.
WDR5; 81.61 °C: 65700 a.u.
WDR5; 74.41 °C: 46100 a.u.
WDR5; 76.01 °C: 52900 a.u.
WDR5; 37 °C: 13800 a.u.
DCAF1; 77.01 °C: 42100 a.u.

Repeated from above (study 2):
CRK2 (Plasmodium falciparum, UniProt P61075); binding, competition with immobilised ligand: 100%
NEK6 (Homo sapiens, UniProt Q9HC98); kinase binding, KINOMEscan; baseline: DMSO control: 80%
DMPK (Homo sapiens, UniProt Q09013); binding, competition with immobilised ligand: 85%
MAP4K2 (Homo sapiens, UniProt Q12851); binding, competition with immobilised ligand: 92%
MAP3K4 (Homo sapiens, UniProt Q9Y6R4); kinase binding, KINOMEscan; baseline: DMSO control: 100%
